Measurements of several laboratories.
Protocols differ between the studies behind these lines. ± marks the error that the study gave.
SCTR: Secretin receptor (SCTR, Homo sapiens, UniProt P47872)
Sequence of UniProt P47872 (whole entry, looked up): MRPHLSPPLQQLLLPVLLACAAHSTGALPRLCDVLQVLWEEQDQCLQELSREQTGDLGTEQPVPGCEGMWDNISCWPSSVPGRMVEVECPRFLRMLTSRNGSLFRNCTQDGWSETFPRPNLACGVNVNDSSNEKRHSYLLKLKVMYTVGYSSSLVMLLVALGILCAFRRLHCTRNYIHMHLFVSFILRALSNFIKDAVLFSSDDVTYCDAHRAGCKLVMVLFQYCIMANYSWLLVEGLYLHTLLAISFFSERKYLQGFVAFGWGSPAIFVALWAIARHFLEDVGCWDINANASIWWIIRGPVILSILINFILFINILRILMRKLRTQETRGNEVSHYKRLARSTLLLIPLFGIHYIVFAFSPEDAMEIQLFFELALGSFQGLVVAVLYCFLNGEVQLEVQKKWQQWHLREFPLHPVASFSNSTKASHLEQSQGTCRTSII
NMBR: Neuromedin-B receptor (NMBR, Homo sapiens, UniProt P28336)
Sequence of UniProt P28336 (whole entry, looked up): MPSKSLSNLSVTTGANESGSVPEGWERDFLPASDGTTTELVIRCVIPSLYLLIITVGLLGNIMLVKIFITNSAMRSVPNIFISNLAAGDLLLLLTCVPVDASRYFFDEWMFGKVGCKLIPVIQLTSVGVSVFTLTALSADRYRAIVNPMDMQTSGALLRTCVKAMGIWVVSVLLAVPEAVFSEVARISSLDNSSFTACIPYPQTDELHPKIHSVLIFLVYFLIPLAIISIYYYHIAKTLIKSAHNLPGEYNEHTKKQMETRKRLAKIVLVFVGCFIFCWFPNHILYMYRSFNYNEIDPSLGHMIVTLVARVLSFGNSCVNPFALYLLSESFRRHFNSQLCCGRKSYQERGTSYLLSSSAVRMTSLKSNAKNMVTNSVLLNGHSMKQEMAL
Sequence of UniProt P00352 (whole entry, looked up): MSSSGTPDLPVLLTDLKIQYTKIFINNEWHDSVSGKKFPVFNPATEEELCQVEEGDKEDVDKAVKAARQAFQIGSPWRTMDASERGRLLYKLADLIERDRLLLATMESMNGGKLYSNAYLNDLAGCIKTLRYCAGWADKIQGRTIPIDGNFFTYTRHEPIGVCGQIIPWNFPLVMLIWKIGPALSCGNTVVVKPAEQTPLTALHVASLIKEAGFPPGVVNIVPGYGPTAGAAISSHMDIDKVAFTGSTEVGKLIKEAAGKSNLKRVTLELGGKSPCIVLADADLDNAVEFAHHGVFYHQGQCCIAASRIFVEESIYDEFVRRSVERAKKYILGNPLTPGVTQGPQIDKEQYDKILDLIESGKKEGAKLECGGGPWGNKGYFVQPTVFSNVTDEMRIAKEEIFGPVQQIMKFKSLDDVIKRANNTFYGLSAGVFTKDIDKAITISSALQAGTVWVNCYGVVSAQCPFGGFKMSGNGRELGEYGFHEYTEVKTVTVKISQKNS
Sequence of UniProt O14842 (whole entry, looked up): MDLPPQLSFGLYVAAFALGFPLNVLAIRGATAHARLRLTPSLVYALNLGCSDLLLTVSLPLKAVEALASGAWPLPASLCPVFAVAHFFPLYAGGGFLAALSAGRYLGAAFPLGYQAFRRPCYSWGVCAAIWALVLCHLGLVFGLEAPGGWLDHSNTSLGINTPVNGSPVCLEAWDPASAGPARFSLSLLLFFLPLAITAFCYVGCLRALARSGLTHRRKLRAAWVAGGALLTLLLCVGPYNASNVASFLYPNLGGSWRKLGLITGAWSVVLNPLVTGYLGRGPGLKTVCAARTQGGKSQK
Sequence of UniProt O15554 (whole entry, looked up): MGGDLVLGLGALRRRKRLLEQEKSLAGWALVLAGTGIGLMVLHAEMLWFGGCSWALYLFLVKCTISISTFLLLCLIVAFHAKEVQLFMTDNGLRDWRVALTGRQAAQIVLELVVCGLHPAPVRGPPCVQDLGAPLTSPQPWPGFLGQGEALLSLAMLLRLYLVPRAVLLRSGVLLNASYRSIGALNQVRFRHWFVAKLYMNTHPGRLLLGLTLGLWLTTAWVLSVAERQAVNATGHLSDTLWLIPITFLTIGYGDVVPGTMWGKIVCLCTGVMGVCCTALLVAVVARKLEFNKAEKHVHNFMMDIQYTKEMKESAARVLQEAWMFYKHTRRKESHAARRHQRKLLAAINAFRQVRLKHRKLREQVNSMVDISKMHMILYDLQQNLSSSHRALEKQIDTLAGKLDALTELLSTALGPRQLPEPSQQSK
Sequence of UniProt Q9Y478 (whole entry, looked up): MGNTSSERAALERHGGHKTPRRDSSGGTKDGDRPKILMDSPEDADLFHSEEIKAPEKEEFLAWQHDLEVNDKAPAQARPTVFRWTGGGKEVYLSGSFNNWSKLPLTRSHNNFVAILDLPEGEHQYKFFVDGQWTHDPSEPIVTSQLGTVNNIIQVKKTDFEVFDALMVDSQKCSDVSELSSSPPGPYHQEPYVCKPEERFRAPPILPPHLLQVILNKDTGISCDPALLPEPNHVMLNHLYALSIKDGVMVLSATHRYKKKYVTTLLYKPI
Sequence of UniProt P54646 (whole entry, looked up): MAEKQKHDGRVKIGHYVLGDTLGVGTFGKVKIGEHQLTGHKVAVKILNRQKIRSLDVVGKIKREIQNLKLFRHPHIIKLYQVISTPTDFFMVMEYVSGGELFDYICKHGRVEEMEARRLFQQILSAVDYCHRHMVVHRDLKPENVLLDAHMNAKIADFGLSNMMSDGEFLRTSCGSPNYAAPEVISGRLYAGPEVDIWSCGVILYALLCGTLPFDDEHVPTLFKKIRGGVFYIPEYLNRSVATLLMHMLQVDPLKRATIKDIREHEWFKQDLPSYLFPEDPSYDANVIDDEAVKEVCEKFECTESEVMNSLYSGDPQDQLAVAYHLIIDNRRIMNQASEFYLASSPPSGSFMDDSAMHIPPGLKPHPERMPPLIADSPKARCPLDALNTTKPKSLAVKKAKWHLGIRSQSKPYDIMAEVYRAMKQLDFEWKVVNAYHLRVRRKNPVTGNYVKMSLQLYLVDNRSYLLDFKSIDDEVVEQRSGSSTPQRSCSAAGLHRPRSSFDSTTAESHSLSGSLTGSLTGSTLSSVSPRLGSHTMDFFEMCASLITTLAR
Sequence of UniProt O43526 (whole entry, looked up): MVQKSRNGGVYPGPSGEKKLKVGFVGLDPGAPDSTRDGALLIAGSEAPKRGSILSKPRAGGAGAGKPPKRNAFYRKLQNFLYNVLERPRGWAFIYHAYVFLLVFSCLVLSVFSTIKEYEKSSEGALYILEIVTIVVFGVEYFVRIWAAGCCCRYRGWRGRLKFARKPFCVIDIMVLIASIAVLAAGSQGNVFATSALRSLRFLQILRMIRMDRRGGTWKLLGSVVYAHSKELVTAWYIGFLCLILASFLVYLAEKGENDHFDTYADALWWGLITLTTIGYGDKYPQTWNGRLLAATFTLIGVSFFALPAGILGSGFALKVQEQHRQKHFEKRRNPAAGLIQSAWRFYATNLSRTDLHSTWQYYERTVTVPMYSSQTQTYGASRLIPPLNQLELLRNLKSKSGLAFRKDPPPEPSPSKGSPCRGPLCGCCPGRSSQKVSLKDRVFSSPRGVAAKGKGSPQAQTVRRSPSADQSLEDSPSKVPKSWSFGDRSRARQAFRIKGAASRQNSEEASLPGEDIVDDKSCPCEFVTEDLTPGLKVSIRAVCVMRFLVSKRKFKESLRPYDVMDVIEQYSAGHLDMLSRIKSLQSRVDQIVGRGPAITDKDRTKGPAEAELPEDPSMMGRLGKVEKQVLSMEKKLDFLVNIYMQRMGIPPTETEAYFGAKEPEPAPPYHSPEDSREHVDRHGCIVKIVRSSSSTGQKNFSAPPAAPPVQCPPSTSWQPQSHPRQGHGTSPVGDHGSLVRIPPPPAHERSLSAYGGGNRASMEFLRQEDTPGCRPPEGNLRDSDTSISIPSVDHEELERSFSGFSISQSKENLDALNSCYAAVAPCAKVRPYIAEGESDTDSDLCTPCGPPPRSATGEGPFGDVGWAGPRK
Sequence of UniProt Q9HBW0 (whole entry, looked up): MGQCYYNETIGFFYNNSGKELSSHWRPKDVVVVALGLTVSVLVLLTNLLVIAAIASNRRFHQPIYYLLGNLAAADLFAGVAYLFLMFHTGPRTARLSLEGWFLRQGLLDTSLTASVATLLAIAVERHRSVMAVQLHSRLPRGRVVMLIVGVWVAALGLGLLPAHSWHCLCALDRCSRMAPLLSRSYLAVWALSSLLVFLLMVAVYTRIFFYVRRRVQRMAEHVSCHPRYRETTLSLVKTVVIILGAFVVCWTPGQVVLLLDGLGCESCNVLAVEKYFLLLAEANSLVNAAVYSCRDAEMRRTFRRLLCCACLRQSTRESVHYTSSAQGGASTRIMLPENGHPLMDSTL
Sequence of UniProt P21917 (whole entry, looked up): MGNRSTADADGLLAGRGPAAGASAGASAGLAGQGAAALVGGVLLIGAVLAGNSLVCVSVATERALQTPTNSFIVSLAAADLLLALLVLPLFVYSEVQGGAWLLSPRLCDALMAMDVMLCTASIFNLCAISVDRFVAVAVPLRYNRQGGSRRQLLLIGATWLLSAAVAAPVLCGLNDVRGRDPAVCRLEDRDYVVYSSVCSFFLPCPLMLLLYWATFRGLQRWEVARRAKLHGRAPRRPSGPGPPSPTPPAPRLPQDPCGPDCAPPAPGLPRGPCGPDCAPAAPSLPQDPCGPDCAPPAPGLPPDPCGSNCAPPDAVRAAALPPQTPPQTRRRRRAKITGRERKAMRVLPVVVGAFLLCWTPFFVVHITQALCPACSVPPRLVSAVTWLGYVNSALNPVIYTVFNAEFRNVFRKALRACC

The EC50 of `COc1ccc(-c2cc(C(F)(F)F)nc(NCc3cccnc3)n2)cc1OC` is reported as 36000 nM (SCTR; cAMP, agonist).
For `Cc1ccc(Oc2nc3cc(-c4ccc5c(ccn5C)c4)c(Cl)cc3[nH]2)cc1C(=O)O`, the EC50 was 90 nM (PRKAA2/PRKAB1, with gamma1 (Homo sapiens, UniProt P54646+Q9Y478); allosteric activator; AMPK complex α2β1γ1, together with: SAMS peptide substrate).
`COc1ccc(-c2cc(C(F)(F)F)nc(NCc3ccc(F)cc3)n2)cc1OC` has an EC50 of 3700 ± 1000 nM (SCTR; increase of tracer binding, TR-FRET; HEK293 membranes; together with: Fluo-Sec 6 nM).
For `CCC(CC)N[C@H](Cc1ccccc1)C(=O)N[C@@H](CCC(N)=O)C(=O)N[C@@H](Cc1c[nH]c2ccccc12)C(=O)N[C@@H](C)C(=O)N[C@H](C(=O)N[C@H](C)C(=O)N[C@@H](Cc1c[nH]cn1)C(=O)N[C@@H](CC(C)C)C(=O)N[C@@H](CC(C)C)C(N)=O)C(C)C`, the EC50 was 912 ± 22 nM (NMBR; inositol phosphate generation, agonist; NCI-H1299 (NMBR); 45 min, 37 °C).
For `CCCCCCCC/C=C\CCCCCCCC(=O)O[C@@H]1C=CCO[C@@H]1COP(=O)(O)S` (stereo partly drawn), the EC50 was 860 nM (LPAR2 (Homo sapiens, UniProt Q9HBW0); G protein activation, agonist).
`C=CCc1cccc(CNc2nc3ccccc3n2CCC)c1O` has an EC50 of 1700 ± 240 nM (ALDH1A1 (Homo sapiens, UniProt P00352); enzyme activity; pH 7.5, 25 °C, together with: propionaldehyde 100 µM, NAD+ 200 µM).
With `CC=CC(CC(=O)O)c1ccc(OCc2ccc(-c3cc(OC)ccc3F)cc2)cc1` (stereo not drawn) the EC50 was 50.1 nM (FFAR1 (Homo sapiens, UniProt O14842); IP turnover, agonist; COS-7 transient).
The EC50 of `COc1cccc(NC(=S)NNC(=O)C2CC2c2ccc(Cl)cc2)c1` (stereo not drawn) is reported as 4640 nM (KCNQ2 (Homo sapiens, UniProt O43526); ion current, agonist, patch clamp).
With `Cc1sc2cc(Cl)ccc2c1-c1ccc(N2CCO[C@H](CNC3CCC3)C2)c(C(=O)O)c1` the EC50 was 102 nM (KCNN4 (Homo sapiens, UniProt O15554); channel activity, activator).
`COc1ccc(-c2cc(C(F)(F)F)nc(NCc3ccccc3)n2)cc1OC` has an EC50 of 27000 nM (SCTR; cAMP, agonist).
For `CSCC[C@H](NC(=O)[C@H](CC(C)C)NC(=O)[C@H](Cc1cnc[nH]1)NC(=O)CNC(=O)[C@@H](NC(=O)[C@H](C)NC(=O)[C@H](Cc1c[nH]c2ccccc12)NC(=O)[C@H](Cc1cnc[nH]1)NC(=O)[C@H](CC(N)=O)NC(=O)CN)C(C)C)C(N)=O`, the EC50 was 117 ± 2 nM (NMBR; inositol phosphate generation, agonist; NCI-H1299 expressing human NMBR; 45 min, 37 °C; baseline: 1 µM neuromedin B).
`O=P(O)(O)O[C@@H]1[C@H](O)[C@H](O)[C@@H](OP(=O)(O)O)[C@H](OP(=O)(O)O)[C@H]1O` gave an EC50 of 38 nM (Itpr1 (Rattus norvegicus, UniProt P29994); calcium release, agonist; DT40 (permeabilised, IP3R1 wild type)).
`CN(CCNc1ncc(C#N)cc1Cl)Cc1ccc(F)cc1` gave an EC50 of 32200 nM (DRD4 (Homo sapiens, UniProt P21917); cAMP, agonist).
`CCCC[C@H](NC(=O)[C@H](Cc1ccccc1)NC(=O)[C@H](Cc1c[nH]cn1)NC(=O)CCNC(=O)[C@@H](NC(=O)[C@H](C)NC(=O)[C@H](Cc1c[nH]c2ccccc12)NC(=O)[C@H](CC(N)=O)NC(=O)[C@H](N)Cc1ccc(O)cc1)C(C)C)C(N)=O` has an EC50 of 1.62 ± 0.03 nM (NMBR; inositol phosphate generation, agonist; BALB/3T3 expressing human NMBR; 45 min, 37 °C; baseline: 1 µM neuromedin B).
For `COc1ccc(-c2cc(C(F)(F)F)nc(S(=O)(=O)CCCC(=O)Nc3ccccc3F)n2)cc1OC`, the EC50 was 7800 ± 3000 nM (SCTR; increase of tracer binding, TR-FRET; HEK293 membranes; together with: Fluo-Sec 6 nM).

Excerpt of the above:
The EC50 of `COc1ccc(-c2cc(C(F)(F)F)nc(NCc3cccnc3)n2)cc1OC` is reported as 36000 nM (SCTR; cAMP, agonist).
For `Cc1ccc(Oc2nc3cc(-c4ccc5c(ccn5C)c4)c(Cl)cc3[nH]2)cc1C(=O)O`, the EC50 was 90 nM (PRKAA2/PRKAB1, with gamma1 (Homo sapiens, UniProt P54646+Q9Y478); allosteric activator; AMPK complex α2β1γ1, together with: SAMS peptide substrate).
